# Measured values of several laboratories.
# Parts stem from different laboratories: compare values within a part only. Substitutions count along the parent as printed.
# Sequence of UniProt O75604 (whole entry, looked up): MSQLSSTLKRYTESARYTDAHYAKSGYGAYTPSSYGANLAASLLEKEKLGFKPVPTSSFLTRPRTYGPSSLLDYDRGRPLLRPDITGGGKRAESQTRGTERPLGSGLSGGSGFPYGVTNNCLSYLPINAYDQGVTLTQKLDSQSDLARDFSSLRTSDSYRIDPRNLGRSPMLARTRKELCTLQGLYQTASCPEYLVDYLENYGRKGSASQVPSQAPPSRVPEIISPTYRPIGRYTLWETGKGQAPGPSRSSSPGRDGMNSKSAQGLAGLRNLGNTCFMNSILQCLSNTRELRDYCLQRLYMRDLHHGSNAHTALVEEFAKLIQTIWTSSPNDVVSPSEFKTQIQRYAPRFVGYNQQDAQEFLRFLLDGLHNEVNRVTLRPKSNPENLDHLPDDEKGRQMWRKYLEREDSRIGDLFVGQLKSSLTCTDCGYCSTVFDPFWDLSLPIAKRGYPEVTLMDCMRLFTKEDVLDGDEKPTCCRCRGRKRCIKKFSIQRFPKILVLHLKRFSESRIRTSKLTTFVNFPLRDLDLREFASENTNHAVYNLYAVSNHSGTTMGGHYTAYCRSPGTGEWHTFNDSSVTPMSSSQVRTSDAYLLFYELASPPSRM
# Sequence of UniProt P54578 (whole entry, looked up): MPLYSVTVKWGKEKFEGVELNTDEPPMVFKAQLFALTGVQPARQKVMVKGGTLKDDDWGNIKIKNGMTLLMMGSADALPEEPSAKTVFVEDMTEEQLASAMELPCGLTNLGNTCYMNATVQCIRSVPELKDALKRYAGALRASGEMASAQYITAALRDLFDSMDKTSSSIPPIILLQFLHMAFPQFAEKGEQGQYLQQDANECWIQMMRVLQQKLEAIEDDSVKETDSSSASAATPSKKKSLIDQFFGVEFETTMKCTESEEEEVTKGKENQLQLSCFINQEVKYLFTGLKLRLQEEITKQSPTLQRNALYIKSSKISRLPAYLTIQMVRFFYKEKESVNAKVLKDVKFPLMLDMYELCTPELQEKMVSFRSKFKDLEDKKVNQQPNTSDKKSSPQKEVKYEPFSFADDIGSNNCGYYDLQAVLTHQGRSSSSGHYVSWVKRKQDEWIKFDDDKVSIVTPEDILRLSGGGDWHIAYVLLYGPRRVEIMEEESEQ
# Sequence of UniProt Q8N6M0 (whole entry, looked up): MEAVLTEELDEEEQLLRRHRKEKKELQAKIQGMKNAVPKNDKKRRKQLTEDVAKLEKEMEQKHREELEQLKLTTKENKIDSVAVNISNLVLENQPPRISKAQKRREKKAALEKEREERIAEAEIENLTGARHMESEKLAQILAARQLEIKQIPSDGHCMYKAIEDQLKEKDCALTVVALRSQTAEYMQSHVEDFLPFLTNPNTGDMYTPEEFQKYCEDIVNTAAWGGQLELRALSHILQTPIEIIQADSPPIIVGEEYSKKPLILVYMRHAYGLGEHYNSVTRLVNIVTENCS

# Block 1
# Target: CCNE1, cyclin fold, Cln2 fusion (human)
# Method: yeast growth competition, sequencing
# Sample: yeast
# Notes: strong parent motif
# Reference: not given
# Direction: higher = stronger binding
# Starting sequence: GMNC docking peptide (human); KNAKRNLSSEFAN
Variant,normalised enrichment score
S9W,1.63
K4L,0.634
A3W,0.821
E10I,0.554
E10M,0.661
L7Y,-0.0324
F11E,-0.116
S9C,0.969

# Block 2
# Molecule: ubiquitin aldehyde
# Observed: enzyme activity
target,setting,inhibition
"Ubiquitin carboxyl-terminal hydrolase 2 (USP2, Homo sapiens, UniProt O75604)",0.1 µM,55%
"Deubiquitinase OTUD6B (OTUD6B, Homo sapiens, UniProt Q8N6M0)",0.1 µM,24%
"Ubiquitin carboxyl-terminal hydrolase 10 (USP10, Homo sapiens, UniProt Q14694)",0.01 µM,5%
"Ubiquitin carboxyl-terminal hydrolase 14 (USP14, Homo sapiens, UniProt P54578)",0.001 µM,19%

# Block 3
# Target: HLA class I histocompatibility antigen, A alpha chain, allele A*26:03 (Homo sapiens, UniProt P04439)
# Observed: peptide-MHC binding
# Molecule type: peptide
# Tested at: concentration not given
Molecule,binding
WENGFKVVL,inactive
EVPEMFGAE,inactive
HTIFDFLAY,active
TIHLATAPK,inactive
TIIDRIGPY,active
FTYAPAGMY,inactive
REWGWRIPF,inactive
PTIPEQKCM,inactive
SYVFNFHKY,inactive
GRRPLKNRK,inactive
EGIPGLYTY,inactive
ETALAIIRR,inactive
RGRGVAIHR,inactive
QVGIFLICK,inactive
RSLYNTVAVLY,inactive

# Block 4
# Target: UBE2D2 UBC core domain (UniProt P62837)
# Sequence of UniProt P62837 (whole entry, looked up): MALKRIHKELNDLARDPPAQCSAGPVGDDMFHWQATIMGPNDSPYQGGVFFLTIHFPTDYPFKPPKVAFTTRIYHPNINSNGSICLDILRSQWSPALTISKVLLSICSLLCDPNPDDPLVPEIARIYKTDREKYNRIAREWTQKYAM
# Method: yeast two-hybrid
# Sample: yeast
# Notes: mostly zero background
# Reference: not given
# Direction: higher = stronger interaction
# B1: PHF21A RING domain (UniProt Q96BD5); chain SPTSTDGDIHEDFCSVCRKSGQLLMCDTCSRVYHLDCLDPPLKTIPKGMWICPRCQDQMLKKEEAIPW
# B2: ARK2C RING domain (UniProt Q6ZSG1); chain EGEESDTDEKCTICLSMLEDGEDVRRLPCMHLFHQLCVDQWLAMSKKCPICRVDIETQLGAD
# B3: RC3H2 RING domain (UniProt Q9HBD1); chain QAAQWTEFLSCPICYNEFDENVHKPISLGCSHTVCKTCLNKLHRKACPFDQTAINTDIDVL
Molecule,lacZ reporter activity
YWAMDSTFELCKICAESNKDVKIEPCGHLLCSCCLAAWQHSDSQTCPFCRCEIKGWEAVS (CBLC RING domain (UniProt Q9ULV8)),0
PEELQAMDNVCIICREEMVTGAKRLPCNHIFHTSCLRSWFQRQQTCPTCRMDVLRASLPA (SYVN1 RING domain (UniProt Q86TM6)),0
DDENSDNSNECVVCLSDLRDTLILPCRHLCLCTSCADTLRYQANNCPICRLPFRALLQIR (MGRN1 RING domain (UniProt O60291)),0
B1 (PHF21A RING domain),0
QLRRLQEERTCKVCMDKEVSIVFIPCGHLVVCKDCAPSLRKCPICRSTIKGTVRTF (BIRC3 RING domain (UniProt Q13489)),0
FASPPDSNFVCSVCHGVLKRPARLPCSHIFCKKCILRWLARQKTCPCCRKEVKRKKVVH (RNF151 RING domain (UniProt Q2KHN1)),0
KTLSRFGIQPCSICLGDAKDPVCLPCDHVHCLRCLRAWFASEQMICPYCLTALPDEFSPA (RNF213 RING domain (UniProt Q63HN8)),0
VTLSLTLPITCHICLGKVRQPVICINNHVFCSICIDLWLKNNSQCPACRVPITPENPCK (OBI1 RING domain (UniProt Q5W0B1)),0
B2 (ARK2C RING domain),14800
QLQDIKEQTMCPVCLDRLKNMIFLCGHGTCQLCGDRMSECPICRKAIERRILLY (MIB1 RING domain (UniProt Q86YT6)),10200
B3 (RC3H2 RING domain),0

# Excerpt of the above (block 4):
Molecule,lacZ reporter activity
QLRRLQEERTCKVCMDKEVSIVFIPCGHLVVCKDCAPSLRKCPICRSTIKGTVRTF (BIRC3 RING domain (UniProt Q13489)),0
KTLSRFGIQPCSICLGDAKDPVCLPCDHVHCLRCLRAWFASEQMICPYCLTALPDEFSPA (RNF213 RING domain (UniProt Q63HN8)),0
B1 (PHF21A RING domain),0
PEELQAMDNVCIICREEMVTGAKRLPCNHIFHTSCLRSWFQRQQTCPTCRMDVLRASLPA (SYVN1 RING domain (UniProt Q86TM6)),0
DDENSDNSNECVVCLSDLRDTLILPCRHLCLCTSCADTLRYQANNCPICRLPFRALLQIR (MGRN1 RING domain (UniProt O60291)),0
